Experimental data gathered from unrelated publications.
Parts stem from different laboratories: compare values within a part only. Changes are numbered by the printed parent chain.

Set 1
Target: CCNA2, cyclin fold, Cln2 fusion (human)
Method: yeast growth competition, sequencing
Sample: yeast
Notes: strong parent motif
Baseline: not given
Direction: higher = stronger binding
Starting sequence: BRCA2 docking peptide (human); PSIKRNLLNEFDR; partner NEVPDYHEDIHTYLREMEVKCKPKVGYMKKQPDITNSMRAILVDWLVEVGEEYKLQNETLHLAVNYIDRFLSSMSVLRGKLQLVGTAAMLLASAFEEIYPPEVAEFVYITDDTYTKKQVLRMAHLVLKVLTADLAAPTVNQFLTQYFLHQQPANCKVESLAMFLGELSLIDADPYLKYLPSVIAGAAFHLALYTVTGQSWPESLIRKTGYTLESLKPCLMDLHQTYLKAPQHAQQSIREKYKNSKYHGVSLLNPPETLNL
For `N9D`, “normalised enrichment score” read 4.97.
`N6S` — result for “normalised enrichment score”: 5.32.
`N9W`: “normalised enrichment score” 6.19.
`L7S` — result for “normalised enrichment score”: -0.00603.
`L7I` — result for “normalised enrichment score”: 1.86.
`R5F`: “normalised enrichment score” -0.0347.
`N9S` — result for “normalised enrichment score”: 5.37.
`E10W` — result for “normalised enrichment score”: 2.29.
For `K4Q`, “normalised enrichment score” read 2.9.
`I3H`: “normalised enrichment score” 4.01.
`E10N` — result for “normalised enrichment score”: 1.66.
For `D12V`, “normalised enrichment score” read 4.9.
`N9G` — result for “normalised enrichment score”: 5.3.
`R13P`: “normalised enrichment score” 4.44.
For `E10D`, “normalised enrichment score” read 5.81.
`P1I` — result for “normalised enrichment score”: 4.88.
`N6P` — result for “normalised enrichment score”: 1.84.
Under “normalised enrichment score”, `F11E` is recorded as 0.143.
For `D12C`, “normalised enrichment score” read 4.84.
Under “normalised enrichment score”, `L7M` is recorded as 1.1.
`K4M`: “normalised enrichment score” 2.31.
Under “normalised enrichment score”, `R5K F11L` is recorded as 0.415.
For `I3M`, “normalised enrichment score” read 3.7.
Under “normalised enrichment score”, `S2R` is recorded as 5.22.
For `K4W`, “normalised enrichment score” read 1.22.

Set 2
Target: ATF2, bZIP domain (human)
Method: DHFR protein complementation
Sample: yeast
Notes: single substitutions, most at no-binding floor
Baseline: wild-type JUN-FOS pair
Direction: higher = stronger binding
Starting sequence: JUN, bZIP domain (human); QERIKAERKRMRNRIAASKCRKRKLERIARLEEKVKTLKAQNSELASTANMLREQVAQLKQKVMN; partner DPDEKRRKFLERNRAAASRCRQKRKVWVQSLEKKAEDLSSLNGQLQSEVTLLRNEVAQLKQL
`V56W` has a binding fitness of -1.5 natural log.
The binding fitness of `T48E` is reported as -1.31 natural log.
With `I28M` the binding fitness was -1.32 natural log.
For `E33P`, the binding fitness was -1.52 natural log.
`L38P` gave a binding fitness of -1.49 natural log.
The binding fitness of `K39W` is reported as -1.54 natural log.
With `R53A` the binding fitness was -1.25 natural log.
For `L38H`, the binding fitness was -1.49 natural log.
For `L52D`, the binding fitness was -1.61 natural log.
For `M51F`, the binding fitness was -1.34 natural log.
For `A57H`, the binding fitness was -1.43 natural log.

Set 3
Target: Histone acetyltransferase KAT6A, both winged helices, GST fusion (KAT6A, Homo sapiens, UniProt Q92794, residues 1-181)
Method: protein binding microarray
Form: double-stranded DNA, one strand shown
Sample: in vitro
Concentration: not given
Notes: 8-mer, flanks averaged, mean of 2 arrays, mostly near background
Baseline: not given
Direction: higher = stronger binding
Residues (chain): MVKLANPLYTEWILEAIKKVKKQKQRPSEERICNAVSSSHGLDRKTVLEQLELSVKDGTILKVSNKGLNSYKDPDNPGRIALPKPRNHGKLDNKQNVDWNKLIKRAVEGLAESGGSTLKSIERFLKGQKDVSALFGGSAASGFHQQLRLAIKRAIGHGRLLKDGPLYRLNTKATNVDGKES
`AGGTACGG` has an E-score of 0.217.
`CCGCGAGG` has an E-score of 0.326.
For `CATACGCG`, the E-score was 0.227.
For `CTACGTAG`, the E-score was 0.135.
The E-score of `CCAGCGAC` is reported as -0.0688.
`GGATGGCA` gave an E-score of -0.00779.
With `AGTAACTG` the E-score was -0.158.
`GGCGATTA` gave an E-score of 0.151.
The E-score of `AGCGCTCG` is reported as 0.295.
With `CCCTTAAC` the E-score was -0.138.
For `CGAACCAG`, the E-score was -0.111.
`CCGAAAAA` gave an E-score of -0.0416.
`CTTTCTGC` gave an E-score of 0.0536.
With `GACGTGGA` the E-score was -0.0663.
For `GGATCTAC`, the E-score was -0.205.
For `GCTCCTCA`, the E-score was -0.101.
For `AAATTTTA`, the E-score was -0.0188.
The E-score of `ACTAGTCG` is reported as -0.0898.
`ACAAGATG` has an E-score of -0.134.
`AGAGCGAC` has an E-score of 0.0899.
For `CCACTAGC`, the E-score was -0.0782.
`CTTCACCC` gave an E-score of 0.124.
With `ATTGCAAA` the E-score was -0.099.
The E-score of `ACCACTAC` is reported as -0.156.

Set 4
Target: ABI1, truncated, D143A, DHFR fusion (Arabidopsis thaliana)
Method: DHFR PCA, deep sequencing
Sample: yeast
Notes: methotrexate growth selection, single substitutions
With: (+)-ABA 0.032 µM
Baseline: wild-type fitted maximum
Direction: higher = stronger binding
Starting sequence: PYL1, truncated, DHFR fusion (Arabidopsis thaliana); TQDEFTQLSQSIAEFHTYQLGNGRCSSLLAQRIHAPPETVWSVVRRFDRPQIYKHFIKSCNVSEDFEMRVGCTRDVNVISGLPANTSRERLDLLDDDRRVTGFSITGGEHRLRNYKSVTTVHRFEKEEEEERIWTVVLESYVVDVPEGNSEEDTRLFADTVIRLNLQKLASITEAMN; partner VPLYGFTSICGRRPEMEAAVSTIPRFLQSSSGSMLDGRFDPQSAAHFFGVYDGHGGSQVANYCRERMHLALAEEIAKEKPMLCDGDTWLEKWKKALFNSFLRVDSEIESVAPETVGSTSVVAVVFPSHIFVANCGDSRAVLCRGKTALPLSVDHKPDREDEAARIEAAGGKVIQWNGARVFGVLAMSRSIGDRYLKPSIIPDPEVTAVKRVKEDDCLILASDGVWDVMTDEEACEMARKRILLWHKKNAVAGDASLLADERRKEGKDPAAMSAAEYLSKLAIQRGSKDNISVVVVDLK
For `F124N`, “relative binding score” read -4.94%.
For `S117L`, “relative binding score” read 0.806%.
For `A35H`, “relative binding score” read -8.5%.
`R123D` — result for “relative binding score”: 12.5%.
Under “relative binding score”, `R90G` is recorded as -3.75%.
`V143E` — result for “relative binding score”: 0.143%.
For `L20V`, “relative binding score” read 52.5%.
`T17H` — result for “relative binding score”: -2.26%.
`R45G` — result for “relative binding score”: -8.53%.
Under “relative binding score”, `G23C` is recorded as 4.63%.
`A35F`: “relative binding score” -6.62%.
Under “relative binding score”, `E129K` is recorded as 20.9%.
`R163L`: “relative binding score” -0.178%.
Under “relative binding score”, `G81P` is recorded as 36.7%.
`E89L`: “relative binding score” -0.82%.
Under “relative binding score”, `N61L` is recorded as 18.3%.

Repeated from above (set 3):
`CCGCGAGG` has an E-score of 0.326.
`CTTTCTGC` gave an E-score of 0.0536.
For `AAATTTTA`, the E-score was -0.0188.
`GGATGGCA` gave an E-score of -0.00779.
With `ATTGCAAA` the E-score was -0.099.
For `CTACGTAG`, the E-score was 0.135.
`ACAAGATG` has an E-score of -0.134.
The E-score of `ACCACTAC` is reported as -0.156.
The E-score of `AGCGCTCG` is reported as 0.295.
For `GGATCTAC`, the E-score was -0.205.
The E-score of `CCAGCGAC` is reported as -0.0688.
